Published values from different studies.
Parts stem from different laboratories: compare values within a part only.
Chain of UniProt Q00537 (whole entry, looked up): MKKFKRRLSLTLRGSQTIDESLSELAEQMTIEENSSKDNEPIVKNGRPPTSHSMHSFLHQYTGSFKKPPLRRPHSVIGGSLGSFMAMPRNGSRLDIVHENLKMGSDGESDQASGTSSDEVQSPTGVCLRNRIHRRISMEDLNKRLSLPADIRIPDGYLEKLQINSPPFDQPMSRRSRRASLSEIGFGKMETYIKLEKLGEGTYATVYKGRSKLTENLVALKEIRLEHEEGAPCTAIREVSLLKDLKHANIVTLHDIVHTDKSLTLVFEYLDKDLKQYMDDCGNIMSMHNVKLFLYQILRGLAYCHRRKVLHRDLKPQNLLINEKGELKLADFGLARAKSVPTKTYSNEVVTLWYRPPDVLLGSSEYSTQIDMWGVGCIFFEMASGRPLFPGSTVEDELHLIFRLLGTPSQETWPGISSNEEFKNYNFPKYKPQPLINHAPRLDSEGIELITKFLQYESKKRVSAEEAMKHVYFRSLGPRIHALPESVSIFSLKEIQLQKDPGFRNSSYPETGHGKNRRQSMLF
Chain of UniProt O94806 (whole entry, looked up): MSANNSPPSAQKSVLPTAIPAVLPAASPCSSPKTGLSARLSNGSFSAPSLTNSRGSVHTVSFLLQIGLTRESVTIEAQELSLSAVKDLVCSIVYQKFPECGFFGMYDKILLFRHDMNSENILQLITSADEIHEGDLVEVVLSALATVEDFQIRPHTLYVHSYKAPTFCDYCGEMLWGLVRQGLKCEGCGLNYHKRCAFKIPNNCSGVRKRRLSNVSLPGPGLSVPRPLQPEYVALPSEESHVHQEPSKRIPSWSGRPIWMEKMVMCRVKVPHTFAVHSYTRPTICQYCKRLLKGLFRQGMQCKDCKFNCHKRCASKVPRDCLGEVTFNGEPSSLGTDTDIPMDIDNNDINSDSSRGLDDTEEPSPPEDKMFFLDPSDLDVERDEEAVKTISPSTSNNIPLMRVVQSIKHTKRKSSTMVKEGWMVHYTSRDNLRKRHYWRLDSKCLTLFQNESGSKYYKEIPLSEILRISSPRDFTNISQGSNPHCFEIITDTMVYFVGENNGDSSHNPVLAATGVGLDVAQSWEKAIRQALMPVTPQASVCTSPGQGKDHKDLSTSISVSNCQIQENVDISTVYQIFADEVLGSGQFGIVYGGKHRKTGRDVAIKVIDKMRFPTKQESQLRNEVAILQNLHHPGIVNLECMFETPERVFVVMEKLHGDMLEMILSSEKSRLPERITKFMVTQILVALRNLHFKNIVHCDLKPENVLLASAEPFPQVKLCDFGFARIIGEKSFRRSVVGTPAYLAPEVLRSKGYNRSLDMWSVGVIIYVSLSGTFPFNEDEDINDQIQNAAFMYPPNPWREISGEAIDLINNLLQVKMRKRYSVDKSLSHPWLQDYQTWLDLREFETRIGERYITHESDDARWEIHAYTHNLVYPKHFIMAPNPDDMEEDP
Chain of UniProt O75460 (whole entry, looked up): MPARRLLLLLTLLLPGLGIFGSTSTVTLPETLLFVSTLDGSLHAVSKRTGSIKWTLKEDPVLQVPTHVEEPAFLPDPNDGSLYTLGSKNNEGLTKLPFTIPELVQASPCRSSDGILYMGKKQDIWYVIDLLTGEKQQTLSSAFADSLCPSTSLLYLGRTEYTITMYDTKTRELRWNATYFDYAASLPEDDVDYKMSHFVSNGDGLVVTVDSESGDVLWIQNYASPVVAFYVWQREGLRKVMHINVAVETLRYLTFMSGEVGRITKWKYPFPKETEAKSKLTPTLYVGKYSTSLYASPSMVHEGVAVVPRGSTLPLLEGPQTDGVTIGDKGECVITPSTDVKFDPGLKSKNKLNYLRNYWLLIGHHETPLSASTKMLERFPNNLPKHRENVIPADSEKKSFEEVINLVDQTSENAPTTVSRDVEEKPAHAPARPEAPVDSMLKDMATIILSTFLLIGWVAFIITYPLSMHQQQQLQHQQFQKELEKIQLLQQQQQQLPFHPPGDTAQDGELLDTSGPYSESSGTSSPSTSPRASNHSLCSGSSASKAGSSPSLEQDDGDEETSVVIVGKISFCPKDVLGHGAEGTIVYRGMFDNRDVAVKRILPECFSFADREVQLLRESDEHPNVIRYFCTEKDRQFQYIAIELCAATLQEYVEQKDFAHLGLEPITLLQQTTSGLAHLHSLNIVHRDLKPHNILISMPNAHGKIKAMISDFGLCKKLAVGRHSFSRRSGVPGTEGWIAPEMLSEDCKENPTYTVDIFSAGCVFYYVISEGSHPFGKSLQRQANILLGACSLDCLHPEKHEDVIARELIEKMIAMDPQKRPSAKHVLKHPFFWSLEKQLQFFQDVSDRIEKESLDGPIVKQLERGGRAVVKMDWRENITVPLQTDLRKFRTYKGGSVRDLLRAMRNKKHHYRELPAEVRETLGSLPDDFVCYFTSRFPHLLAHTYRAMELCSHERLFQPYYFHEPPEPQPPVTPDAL
Chain of UniProt Q9Y6R4 (whole entry, looked up): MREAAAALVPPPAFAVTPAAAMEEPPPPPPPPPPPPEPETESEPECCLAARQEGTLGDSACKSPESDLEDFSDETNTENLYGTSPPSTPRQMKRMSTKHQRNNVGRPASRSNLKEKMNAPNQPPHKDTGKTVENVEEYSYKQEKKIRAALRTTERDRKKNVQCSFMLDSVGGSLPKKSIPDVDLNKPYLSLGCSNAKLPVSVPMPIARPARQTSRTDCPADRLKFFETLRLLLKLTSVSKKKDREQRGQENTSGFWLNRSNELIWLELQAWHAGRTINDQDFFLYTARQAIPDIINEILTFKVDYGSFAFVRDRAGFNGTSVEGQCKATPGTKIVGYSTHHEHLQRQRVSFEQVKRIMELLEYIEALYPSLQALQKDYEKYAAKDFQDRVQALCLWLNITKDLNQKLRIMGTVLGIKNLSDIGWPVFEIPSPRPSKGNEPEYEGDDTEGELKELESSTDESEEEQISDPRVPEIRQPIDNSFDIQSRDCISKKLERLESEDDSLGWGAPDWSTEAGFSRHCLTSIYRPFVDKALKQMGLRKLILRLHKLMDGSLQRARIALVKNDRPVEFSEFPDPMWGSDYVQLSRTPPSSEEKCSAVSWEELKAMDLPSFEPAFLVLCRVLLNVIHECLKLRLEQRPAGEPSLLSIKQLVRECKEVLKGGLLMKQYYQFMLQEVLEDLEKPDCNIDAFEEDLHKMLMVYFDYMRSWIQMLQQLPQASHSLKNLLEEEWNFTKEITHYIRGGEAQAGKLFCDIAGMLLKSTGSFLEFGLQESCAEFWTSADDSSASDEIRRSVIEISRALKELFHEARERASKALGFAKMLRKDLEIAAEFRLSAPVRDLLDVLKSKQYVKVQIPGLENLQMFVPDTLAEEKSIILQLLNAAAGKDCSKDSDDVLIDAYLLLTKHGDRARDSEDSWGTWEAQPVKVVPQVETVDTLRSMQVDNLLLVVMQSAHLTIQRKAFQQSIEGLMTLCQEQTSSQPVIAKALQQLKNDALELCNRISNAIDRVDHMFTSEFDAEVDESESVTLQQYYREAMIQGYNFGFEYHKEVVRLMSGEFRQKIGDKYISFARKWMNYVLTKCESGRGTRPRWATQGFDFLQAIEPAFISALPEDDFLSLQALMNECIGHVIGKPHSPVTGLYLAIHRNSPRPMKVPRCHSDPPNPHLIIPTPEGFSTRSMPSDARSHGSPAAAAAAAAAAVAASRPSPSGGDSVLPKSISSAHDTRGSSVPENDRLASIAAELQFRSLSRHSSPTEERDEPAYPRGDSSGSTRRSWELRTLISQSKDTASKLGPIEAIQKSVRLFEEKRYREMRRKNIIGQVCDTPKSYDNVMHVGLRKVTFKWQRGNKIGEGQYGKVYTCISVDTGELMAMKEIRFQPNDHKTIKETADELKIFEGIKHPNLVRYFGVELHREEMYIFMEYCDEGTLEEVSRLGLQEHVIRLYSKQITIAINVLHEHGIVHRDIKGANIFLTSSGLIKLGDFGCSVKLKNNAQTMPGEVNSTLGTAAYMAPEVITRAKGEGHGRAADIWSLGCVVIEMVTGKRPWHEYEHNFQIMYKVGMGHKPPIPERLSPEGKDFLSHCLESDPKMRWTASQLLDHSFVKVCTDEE

Series 1
Target: Serine/threonine-protein kinase pim-3 (PIM3, Homo sapiens, UniProt Q86V86)
Effect on: enzyme activity
Action: inhibitor
Tested at: 0.5 µM
Baseline: control
| Compound | remaining activity [%] |
| --- | --- |
| Oc1ccc(-c2nc(-c3ccncc3)c(-c3ccc(F)cc3)[nH]2)cc1 | 98.7 |
| O=C(Nc1cccc(Nc2cc(Nc3cccc(C(F)(F)F)c3)ncn2)c1)C1CC1 | 133 |
| Cc1ccc(NC(=O)c2ccc(CN3CCN(C)CC3)cc2)cc1Nc1nc(-c2cccnc2)cs1 | 73.7 |
| N#CC(C#N)=C(N)/C(C#N)=C/c1ccc(O)cc1 | 91.3 |
| O=c1c2ccccc2[nH]c(=S)n1CCN1CCC(=C(c2ccc(F)cc2)c2ccc(F)cc2)CC1 | 108 |
| O=C(O)c1ccc2c3c1cccc3c(=O)n1c3ccccc3nc21 | 4.96 |
| CO[C@H]1C[C@@H]2CC[C@@H](C)[C@@](O)(O2)C(=O)C(=O)N2CCCC[C@H]2C(=O)O[C@H]([C@H](C)C[C@@H]2CC[C@@H](O)[C@H](OC)C2)CC(=O)[C@H](C)/C=C(\C)[C@@H](O)[C@@H](OC)C(=O)[C@H](C)C[C@H](C)/C=C/C=C/C=C/1C | 106 |
| Cn1sc(=O)n(Cc2ccccc2)c1=O | 120 |
| COc1ccc(CNC(=O)Nc2ncc([N+](=O)[O-])s2)cc1 | 108 |
| O=C1NC(=O)C(c2cn(CCCn3ccnc3)c3ccccc23)=C1Nc1ccccc1 | 97.5 |
| COc1ccc(OC)c2c(=S)c3ccccc3[nH]c12 | 93.1 |
| NCCNc1ncc(C(N)=O)c(Nc2cccc(C(F)(F)F)c2)n1 | 52.7 |
| COc1cc2ncnc(Nc3ccc(F)c(Cl)c3)c2cc1OCCCN1CCOCC1 | 74.6 |
| Nc1ncnc2n[nH]c(Nc3ccc(F)cc3)c12 | 95 |
| Cn1c2ccccc2c2c3c(c4c5ccccc5n(CCC#N)c4c21)CNC3=O | 17.3 |

Series 2
Target: RING finger protein unkempt homolog, zinc fingers 1-6, GST-SBP tag (UNK, Homo sapiens, UniProt Q9C0B0, residues 30-357)
Chain of UniProt Q9C0B0 (30-357, looked up): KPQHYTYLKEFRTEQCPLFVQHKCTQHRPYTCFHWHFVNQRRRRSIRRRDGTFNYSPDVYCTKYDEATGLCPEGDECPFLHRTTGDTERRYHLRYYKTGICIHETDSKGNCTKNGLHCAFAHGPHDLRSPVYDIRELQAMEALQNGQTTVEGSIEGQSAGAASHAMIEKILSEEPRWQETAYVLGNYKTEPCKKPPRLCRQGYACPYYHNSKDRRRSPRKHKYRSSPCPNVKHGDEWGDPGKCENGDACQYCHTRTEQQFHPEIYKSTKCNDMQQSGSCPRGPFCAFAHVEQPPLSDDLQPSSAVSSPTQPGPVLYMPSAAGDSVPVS
Method: RNA Bind-n-Seq
Molecule type: RNA
Medium: in vitro
Tested at: not given
Setting: RNA with constant flanks, ends assumed
Baseline: input RNA pool
Reading: higher = stronger binding
Shared flanks, not repeated: GGGAGUUCUACAGUCCGACGAUC … CAACAGAGGAUUGAGCAUCA
| Strand | bound/input enrichment |
| --- | --- |
| GGGACCCCGUGUCAUCGCCCAGGCCGAGCACGGAAAUCUACUUUCUUCAAUGUGUUAACCAACCGUCAGGCUUCAGCAGAAAACUUCCCGUUCUGCACUAUUGAUCCUAAUGAGAGCAGA | 0.2 ratio |
| GUGCUUCACAUUUGUAUGUGUGUAGACUGUAACUUUUUUUCAGUUCAUAUGCAGAACGUAUUCCGCCAUUACCCACGUGACACCACCGAAUAUAUUACUGAUUUAGAAGCAAAGAUUUCA | 0.416 ratio |
| UUGCUAGGAAAAAUUACAGCUUUGCAAUAUAACAACUGUUUUUGGAUAUUUCUGAAUGUACCCGAACAAAUAAUCAGUCUGUUUUUAAUGAAUCUAUUUGUAUUUUCCCAAUCAUUCCCU | 0.207 ratio |
| UAUUUUGAUACUCUGUAUGUGUACAUAUAAUUUAACUGUAAUAUGUAUGUUGUAAUAUAUUACCGAUACUGUACUUGUCAUAUCAAGGGUUCUUGUUGUUAUUAAUUAAGCUUUAAAUGU | 0.247 ratio |
| GUCAUGCCGGGGAUAGUGGAGCUGCCCACUCUAGAGGAGCUGAAAGUAGAUGAGGUGAAAAUCCGUUCUGCUGUGCUUAAAGCUGCGGCCCAUCACUAUGGAGCUCAAUGUGAUAAGCCC | 8.28 ratio |
| AUUUUUCAUUUUGUUUGUUCUAAGAGGAUUGAAAAUCAGUUUAGUUUAAAUGUCUUUCUGUCCGGCCUUUCUUUCUUACAAUGAAGAGAUGAUUCUUCUAGUUUAUGGUUAAAAGUUUUU | 16.8 ratio |
| AAUGAAGAAGAAAUACGUGCAAAUGUGGCCGUGGUUUCUGGUGCACCACUUCAGGGGUUGGCCGCAAGACCUUCCAGUAUAAACUAUAUGGUGGCUCCUGUAACUGGUAAUGAUGUUGGA | 0.448 ratio |
| GGUCUCAGCCCCCCACCCCCACCCCUUUGUUUGACUUGCGUCGUCUGAUACUCCGUAUUGCCGCUUUUGUCCGCAUGUUACUACCCUGUAAAUAUGCUGUUCCAAUACUGUUAACAGCCU | 2.53 ratio |

Series 3
Compound: O=C(Nc1cccnn1)N1CC(C/C=C/c2cncc(Oc3ccc(C(F)(F)F)cn3)n2)C1
Effect on: cell-free assay
Method: competition with immobilised ligand
Tested at: 1 µM
| target | remaining binding |
| --- | --- |
| Serine/threonine-protein kinase D3 (PRKD3, Homo sapiens, UniProt O94806) | 100% |
| Serine/threonine-protein kinase/endoribonuclease IRE1 (ERN1, Homo sapiens, UniProt O75460) | 67% |
| Tyrosine-protein kinase ABL1, non-phosphorylated (ABL1, Homo sapiens, UniProt P00519, F317L) | 58% |
| Cyclin-dependent kinase 17 (CDK17, Homo sapiens, UniProt Q00537) | 100% |
| Maternal embryonic leucine zipper kinase (MELK, Homo sapiens, UniProt Q14680) | 100% |
| Mitogen-activated protein kinase kinase kinase 4 (MAP3K4, Homo sapiens, UniProt Q9Y6R4) | 100% |

Further values, each from its own experiment
| Molecule | organism | effect on | tested at | setting | endpoint | value |
| --- | --- | --- | --- | --- | --- | --- |
| medroxyprogesterone | Sarcocystis neurona | parasite growth | 10 µM | first screen | inhibition | 20.7% |

A few entries again (series 1):
| Compound | remaining activity [%] |
| --- | --- |
| COc1ccc(CNC(=O)Nc2ncc([N+](=O)[O-])s2)cc1 | 108 |
| O=C1NC(=O)C(c2cn(CCCn3ccnc3)c3ccccc23)=C1Nc1ccccc1 | 97.5 |
| COc1ccc(OC)c2c(=S)c3ccccc3[nH]c12 | 93.1 |
